Assay results gathered from unrelated publications.
Numbered parts are unrelated; each lists some results of a single study.
Sequence of UniProt P31645 (whole entry, looked up): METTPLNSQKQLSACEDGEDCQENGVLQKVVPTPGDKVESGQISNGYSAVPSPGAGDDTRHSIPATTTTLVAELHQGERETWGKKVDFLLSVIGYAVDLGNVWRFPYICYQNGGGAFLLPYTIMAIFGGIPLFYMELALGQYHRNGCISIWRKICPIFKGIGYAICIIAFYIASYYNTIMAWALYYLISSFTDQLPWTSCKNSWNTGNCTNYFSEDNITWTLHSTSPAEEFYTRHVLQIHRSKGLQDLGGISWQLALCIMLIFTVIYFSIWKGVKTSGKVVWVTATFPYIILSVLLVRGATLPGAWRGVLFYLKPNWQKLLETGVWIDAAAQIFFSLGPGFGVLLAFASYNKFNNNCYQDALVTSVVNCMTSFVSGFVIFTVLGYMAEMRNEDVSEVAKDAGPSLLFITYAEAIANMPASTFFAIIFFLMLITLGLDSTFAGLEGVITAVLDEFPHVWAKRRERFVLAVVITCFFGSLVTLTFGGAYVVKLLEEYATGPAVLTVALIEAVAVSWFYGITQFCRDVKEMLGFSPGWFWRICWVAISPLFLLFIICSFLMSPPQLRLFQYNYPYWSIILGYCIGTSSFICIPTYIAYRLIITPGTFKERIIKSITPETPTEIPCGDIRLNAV
Sequence of UniProt P21673 (whole entry, looked up): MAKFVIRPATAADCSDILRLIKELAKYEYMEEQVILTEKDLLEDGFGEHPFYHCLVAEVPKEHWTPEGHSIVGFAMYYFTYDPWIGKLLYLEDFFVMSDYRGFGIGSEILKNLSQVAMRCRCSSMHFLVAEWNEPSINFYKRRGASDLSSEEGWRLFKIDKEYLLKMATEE
Sequence of UniProt Q01959 (whole entry, looked up): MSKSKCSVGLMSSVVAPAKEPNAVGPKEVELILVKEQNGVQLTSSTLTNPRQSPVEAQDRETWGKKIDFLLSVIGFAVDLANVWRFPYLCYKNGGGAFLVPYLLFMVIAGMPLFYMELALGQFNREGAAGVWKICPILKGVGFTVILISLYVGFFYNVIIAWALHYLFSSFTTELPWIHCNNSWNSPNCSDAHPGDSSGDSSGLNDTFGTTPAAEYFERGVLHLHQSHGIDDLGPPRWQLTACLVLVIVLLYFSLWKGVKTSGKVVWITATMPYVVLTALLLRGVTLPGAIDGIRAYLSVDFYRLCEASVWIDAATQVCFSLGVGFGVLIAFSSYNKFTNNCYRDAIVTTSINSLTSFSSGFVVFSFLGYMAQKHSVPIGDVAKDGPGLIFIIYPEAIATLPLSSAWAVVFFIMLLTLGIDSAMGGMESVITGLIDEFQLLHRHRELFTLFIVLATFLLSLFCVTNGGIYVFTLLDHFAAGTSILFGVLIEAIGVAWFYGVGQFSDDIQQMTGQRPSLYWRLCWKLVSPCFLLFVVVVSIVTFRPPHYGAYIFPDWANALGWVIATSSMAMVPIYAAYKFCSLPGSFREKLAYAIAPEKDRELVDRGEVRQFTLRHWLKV
Sequence of UniProt Q9UKS7 (whole entry, looked up): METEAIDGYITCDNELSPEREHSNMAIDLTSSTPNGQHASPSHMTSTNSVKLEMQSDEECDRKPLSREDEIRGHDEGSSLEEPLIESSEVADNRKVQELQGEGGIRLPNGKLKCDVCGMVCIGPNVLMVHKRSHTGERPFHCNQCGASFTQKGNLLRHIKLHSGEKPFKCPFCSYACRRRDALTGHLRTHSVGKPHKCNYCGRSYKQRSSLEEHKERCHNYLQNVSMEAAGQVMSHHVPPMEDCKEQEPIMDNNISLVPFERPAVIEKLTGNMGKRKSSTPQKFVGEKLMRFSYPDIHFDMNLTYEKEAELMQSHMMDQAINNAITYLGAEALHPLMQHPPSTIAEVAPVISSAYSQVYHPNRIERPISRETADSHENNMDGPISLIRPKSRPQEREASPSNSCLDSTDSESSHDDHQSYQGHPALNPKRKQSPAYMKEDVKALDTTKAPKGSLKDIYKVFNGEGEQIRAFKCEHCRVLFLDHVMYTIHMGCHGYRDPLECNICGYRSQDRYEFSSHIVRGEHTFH
Sequence of UniProt P23975 (whole entry, looked up): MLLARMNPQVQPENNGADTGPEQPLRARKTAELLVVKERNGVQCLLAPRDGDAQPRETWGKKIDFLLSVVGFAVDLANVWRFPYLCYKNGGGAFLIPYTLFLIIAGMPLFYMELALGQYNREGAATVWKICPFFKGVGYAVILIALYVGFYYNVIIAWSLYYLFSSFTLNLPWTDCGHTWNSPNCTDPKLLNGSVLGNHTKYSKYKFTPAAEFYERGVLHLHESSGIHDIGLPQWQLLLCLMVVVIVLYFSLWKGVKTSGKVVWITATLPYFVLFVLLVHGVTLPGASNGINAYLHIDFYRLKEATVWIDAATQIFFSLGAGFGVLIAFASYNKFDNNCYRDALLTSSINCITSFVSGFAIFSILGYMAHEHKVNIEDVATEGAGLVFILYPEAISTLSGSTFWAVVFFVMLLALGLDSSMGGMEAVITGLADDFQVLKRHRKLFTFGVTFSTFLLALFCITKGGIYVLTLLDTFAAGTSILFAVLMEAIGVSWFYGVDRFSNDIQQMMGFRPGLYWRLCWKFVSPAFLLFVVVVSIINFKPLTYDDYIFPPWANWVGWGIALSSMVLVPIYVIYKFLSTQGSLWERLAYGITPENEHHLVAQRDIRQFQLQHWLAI
Sequence of UniProt Q96SW2 (whole entry, looked up): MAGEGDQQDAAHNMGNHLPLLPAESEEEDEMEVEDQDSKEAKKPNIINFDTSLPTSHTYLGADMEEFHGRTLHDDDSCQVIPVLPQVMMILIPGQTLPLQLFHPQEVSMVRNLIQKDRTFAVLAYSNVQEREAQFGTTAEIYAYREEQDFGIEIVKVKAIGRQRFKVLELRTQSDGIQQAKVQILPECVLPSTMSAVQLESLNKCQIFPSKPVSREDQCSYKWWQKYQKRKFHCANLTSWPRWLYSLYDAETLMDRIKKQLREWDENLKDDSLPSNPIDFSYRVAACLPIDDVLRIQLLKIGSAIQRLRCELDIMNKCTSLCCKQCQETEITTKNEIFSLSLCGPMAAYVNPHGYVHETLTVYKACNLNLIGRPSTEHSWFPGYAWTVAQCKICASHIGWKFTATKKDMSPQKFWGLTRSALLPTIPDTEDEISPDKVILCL

Block 1
SMILES: CN(C)C(=O)c1sc2nc(N3CCC(S(C)(=O)=O)CC3)cc(C(F)(F)F)c2c1N
Effect on: ligand displacement
Tested at: 10 µM
For Sodium-dependent noradrenaline transporter (SLC6A2, Homo sapiens, UniProt P23975): inhibition read 1.7%.
Sodium-dependent dopamine transporter (SLC6A3, Homo sapiens, UniProt Q01959) — inhibition: 80.5%.
Sodium-dependent serotonin transporter (SLC6A4, Homo sapiens, UniProt P31645) — inhibition: 18.1%.

Block 2
Target: Calcium/calmodulin-dependent protein kinase type II subunit alpha (CAMK2A, Homo sapiens, UniProt Q9UQM7)
Sequence of UniProt Q9UQM7 (whole entry, looked up): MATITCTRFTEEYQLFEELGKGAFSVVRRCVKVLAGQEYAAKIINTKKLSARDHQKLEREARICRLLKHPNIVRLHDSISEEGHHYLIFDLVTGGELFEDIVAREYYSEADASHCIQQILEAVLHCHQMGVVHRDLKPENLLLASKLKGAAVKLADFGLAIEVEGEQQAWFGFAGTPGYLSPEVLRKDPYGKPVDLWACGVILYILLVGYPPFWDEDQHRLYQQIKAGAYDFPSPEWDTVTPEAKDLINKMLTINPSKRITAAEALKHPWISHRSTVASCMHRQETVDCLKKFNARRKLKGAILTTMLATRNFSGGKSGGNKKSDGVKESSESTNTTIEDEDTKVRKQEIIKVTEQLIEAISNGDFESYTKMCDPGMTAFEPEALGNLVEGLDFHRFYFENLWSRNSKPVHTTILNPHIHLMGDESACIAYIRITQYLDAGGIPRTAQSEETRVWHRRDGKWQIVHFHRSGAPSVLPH
Effect on: enzyme activity
Action: inhibitor
Tested at: 10 µM
For CC1=CC(=O)[C@@H](O)[C@]2(C)[C@H]3[C@@H](O)[C@H](O)[C@@]4(CO)OC[C@@]35[C@@H](C[C@@H]12)OC(=O)[C@H](O)[C@]54O, the inhibition was 3%.
C/C=C1/CN2[C@@H]3C[C@@]45c6ccccc6N[C@]4(O3)[C@@H]2C[C@@H]1[C@H]5C(=O)OC has an inhibition of 6%.
CC(C)[C@@]1(NC(=O)[C@@H]2C[C@@H]3c4cccc5[nH]cc(c45)C[C@H]3N(C)C2)O[C@@]2(O)[C@@H]3CCCN3C(=O)[C@H](Cc3ccccc3)N2C1=O has an inhibition of -3%.
CC(C)=CCCC1=CC(=O)c2c(O)ccc(O)c2C1=O gave an inhibition of 11%.

Block 3
Cell line: mouse MPNST tumor cells
Method: high-content immunofluorescence imaging
Item: nuclear SOX9
Tested at: 10 µM
Time: 12 h
Notes: mean of 2 replicates
Relative to: DMSO control
Direction: higher = more nuclear SOX9
CCCC[N+]1(C)C2CC(OC(=O)C(CO)c3ccccc3)CC1C1OC12 (stereo not drawn): “nuclear SOX9 intensity” 93.8 % of DMSO.
O=C1CN=C(c2cccc(Br)c2)c2oc3ccccc3c2N1 — result for “nuclear SOX9 intensity”: 127 % of DMSO.
Under “nuclear SOX9 intensity”, CCC1(CC)C(=O)C=CNC1=O is recorded as 98.2 % of DMSO.
Under “nuclear SOX9 intensity”, C[C@]12CC[C@@H]3c4ccc(OC(=O)N(CCCl)CCCl)cc4CC[C@H]3[C@@H]1CC[C@@H]2O is recorded as 121 % of DMSO.
For CC(=O)Nc1ccc(Cc2ccc(NC(C)=O)cc2)cc1, “nuclear SOX9 intensity” read 93.1 % of DMSO.

Block 4
Organism: Sarcocystis neurona
Effect on: parasite growth
Tested at: 10 µM
COc1ccc2[nH]cc(CCN)c2c1 gave an inhibition of -26.4%.
With CN1C(=O)CN=C(c2ccccc2)c2cc(Cl)ccc21 the inhibition was 31%.
The inhibition of O=C1Nc2ccc(Cl)cc2C(c2ccccc2Cl)=NC1O (stereo not drawn) is reported as -25.3%.

Block 5
Cell line: HEK-293T/ACE2
Tested at: 10 µM
Time: 16 h
Relative to: vehicle
O=c1[nH]c(=O)n([C@H]2C[C@H](O)[C@@H](CO)O2)cc1I gave a viability of 94.9%.
The viability of CCC(=O)NCC[C@@H]1CCc2ccc3c(c21)CCO3 is reported as 96%.
The viability of COC(=O)[C@H]1[C@H]2C[C@@H]3c4[nH]c5cc(OC)ccc5c4CCN3C[C@H]2C[C@@H](OC(=O)c2cc(OC)c(OC)c(OC)c2)[C@@H]1OC is reported as 101%.
With Clc1ccc(CCC(Cn2ccnc2)Sc2c(Cl)cccc2Cl)cc1 (stereo not drawn) the viability was 95.4%.
CC1(C)O[C@@H]2[C@@H](CO[C@@]3(COS(N)(=O)=O)OC(C)(C)O[C@@H]23)O1 has a viability of 102%.
Nc1ncnc2c1ncn2[C@@H]1O[C@H](CO)[C@@H](O)[C@H]1O has a viability of 99.7%.
For NC(=O)CC[C@H](N)C(=O)O, the viability was 99.2%.
O=C1NC(=O)C(c2ccccc2)(c2ccccc2)N1 gave a viability of 96.6%.
With C=CC1=C(C(=O)O)N2C(=O)[C@@H](NC(=O)/C(=N\OCC(=O)O)c3csc(N)n3)[C@H]2SC1 the viability was 97.8%.
N[C@@H](C(=O)N[C@@H]1C(=O)N2C(C(=O)O)=C(Cl)CS[C@H]12)c1ccccc1 has a viability of 100%.
For CC12CC3CC(C)(C1)CC(N)(C3)C2, the viability was 100%.
With NCCCCCC(=O)O the viability was 104%.
With O=C(O)c1ccccc1O the viability was 101%.
The viability of Cc1nnc(NS(=O)(=O)c2ccc(N)cc2)s1 is reported as 98.8%.
For CC(=O)Oc1ccccc1C(=O)Nc1ncc([N+](=O)[O-])s1, the viability was 77.7%.
For NS(=O)(=O)c1cc2c(cc1Cl)N=CNS2(=O)=O, the viability was 103%.
For C[N+](C)(C)CCCCCCCCCC[N+](C)(C)C, the viability was 99.5%.
CCN(CC)CCOC(=O)c1ccc(N)cc1 has a viability of 97.7%.

Further values, each from its own experiment
COc1cc(-c2cc(=O)c3c(O)cc(O)cc3o2)cc(OC)c1O gave a remaining activity of 91.7% (Diamine acetyltransferase 1 (Homo sapiens, UniProt P21673); inhibitor; 10 µM; relative to: control).
[N-]=[N+]=CC(=O)CC[C@H](N)C(=O)O gave a haematocrit of 19.8% (C57BL/6 CES1-/- mouse, blood; intravenous, 1 mg/kg equivalent).
For O=C1CCC(N2Cc3c(ccc4c3OCC43CCN(Cc4ccsc4)CC3)C2=O)C(=O)N1 (stereo not drawn), the protein remaining was 40.2% (CRBN/Zinc finger protein Helios (Homo sapiens, UniProt Q96SW2+Q9UKS7); degrader, HiBiT; HEK293; 13.72 nM).
